# Results of several laboratories.
# Parts stem from different laboratories: compare values within a part only.

# Block 1
# Target: Sal-like protein 4, full length isoform A (SALL4, Homo sapiens, UniProt Q9UJQ4, residues 1-1053)
# Sequence of UniProt Q9UJQ4 (whole entry, looked up): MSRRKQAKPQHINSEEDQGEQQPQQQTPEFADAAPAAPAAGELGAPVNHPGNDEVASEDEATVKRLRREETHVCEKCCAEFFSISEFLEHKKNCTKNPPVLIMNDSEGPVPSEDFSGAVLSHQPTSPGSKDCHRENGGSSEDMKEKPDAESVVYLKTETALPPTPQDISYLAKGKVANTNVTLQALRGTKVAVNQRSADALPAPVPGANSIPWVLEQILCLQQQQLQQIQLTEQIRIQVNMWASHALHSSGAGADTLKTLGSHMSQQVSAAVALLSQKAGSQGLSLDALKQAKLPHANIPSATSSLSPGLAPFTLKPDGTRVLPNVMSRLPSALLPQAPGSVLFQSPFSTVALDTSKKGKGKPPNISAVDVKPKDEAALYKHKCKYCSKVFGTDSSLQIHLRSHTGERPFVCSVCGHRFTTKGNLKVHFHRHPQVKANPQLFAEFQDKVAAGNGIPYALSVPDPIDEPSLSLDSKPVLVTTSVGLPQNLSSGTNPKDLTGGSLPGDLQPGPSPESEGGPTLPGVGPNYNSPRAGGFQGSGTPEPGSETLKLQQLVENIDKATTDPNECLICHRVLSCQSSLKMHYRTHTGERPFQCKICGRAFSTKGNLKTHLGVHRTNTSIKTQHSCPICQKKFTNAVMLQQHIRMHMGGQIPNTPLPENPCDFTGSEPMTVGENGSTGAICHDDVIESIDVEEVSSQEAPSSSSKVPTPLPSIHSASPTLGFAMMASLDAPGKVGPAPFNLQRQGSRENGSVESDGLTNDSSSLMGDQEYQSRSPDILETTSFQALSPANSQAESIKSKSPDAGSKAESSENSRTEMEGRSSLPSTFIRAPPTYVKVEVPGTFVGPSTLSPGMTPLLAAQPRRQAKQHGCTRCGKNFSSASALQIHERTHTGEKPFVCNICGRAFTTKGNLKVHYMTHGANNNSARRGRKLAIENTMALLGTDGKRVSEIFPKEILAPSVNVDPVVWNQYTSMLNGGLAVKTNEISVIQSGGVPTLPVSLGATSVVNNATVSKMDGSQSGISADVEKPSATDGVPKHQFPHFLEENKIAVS
# Method: universal PBM
# Form: double-stranded DNA, one strand shown
# Sample: in vitro
# Concentration: 600 nM
# Notes: 8-mer, flanks averaged, mean of replicates
# Reading: higher = stronger binding
Strand,E-score
GTAATTCA,0.232
CTTGCCTA,0.0679
GCGGAGCC,-0.435

# Block 2
# Target: Interferon regulatory factor 3, full length, phosphomimetic (IRF3, Homo sapiens, UniProt Q14653, residues 1-427, S386D/S396D/S398D/S402D/T404D/S405D)
# Method: protein-binding microarray
# Form: double-stranded DNA, one strand shown
# Sample: in vitro
# Concentration: 2540 nM top
# Notes: 60-bp whole probe
# Added: salmon DNA 0.4 mg/ml
# Reference: random background probes
# Reading: higher = stronger binding
# Residues (chain): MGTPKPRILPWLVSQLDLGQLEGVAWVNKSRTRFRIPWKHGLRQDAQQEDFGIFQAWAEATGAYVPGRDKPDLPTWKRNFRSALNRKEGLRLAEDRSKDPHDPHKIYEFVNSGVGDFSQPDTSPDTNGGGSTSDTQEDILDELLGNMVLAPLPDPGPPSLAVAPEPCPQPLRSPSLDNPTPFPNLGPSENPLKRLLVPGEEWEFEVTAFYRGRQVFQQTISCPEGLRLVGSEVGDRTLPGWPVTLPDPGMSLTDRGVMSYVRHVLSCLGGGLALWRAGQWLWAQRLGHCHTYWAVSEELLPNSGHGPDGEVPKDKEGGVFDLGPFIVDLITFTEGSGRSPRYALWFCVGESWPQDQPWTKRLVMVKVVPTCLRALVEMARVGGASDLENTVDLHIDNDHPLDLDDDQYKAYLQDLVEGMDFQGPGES
Strand,fitted relative affinity [z-score]
GCCTAGCACTTAGATTTCAGTCTCGATTCGTGCTAGGTCTTGATTCGCTTGACGCTGCTG,2.71
GCCTAGCACTTAGGTTTCCTACTGCTTGAGTGCTAGGTCTTGATTCGCTTGACGCTGCTG,4.91
GCCTAGCACTTAGGTATCTACTATCGGTTAGTGCTAGTCTTGATTCGCTTGACGCTGCTG,0.545
GCCTAGCACTTAGGTATCGGGACTGGTTTAGTGCTAGTCTTGATTCGCTTGACGCTGCTG,1.35

# Block 3
# Target: Histone acetyltransferase KAT6A, winged helix 2, GST fusion (KAT6A, Homo sapiens, UniProt Q92794, residues 85-181)
# Method: protein binding microarray
# Form: double-stranded DNA, one strand shown
# Sample: in vitro
# Concentration: not given
# Notes: 8-mer, flanks averaged, mean of 2 arrays, mostly near background
# Reference: not given
# Reading: higher = stronger binding
# Target sequence (chain): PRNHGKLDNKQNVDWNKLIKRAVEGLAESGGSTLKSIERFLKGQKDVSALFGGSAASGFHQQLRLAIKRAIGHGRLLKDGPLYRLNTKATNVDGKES
Strand,E-score
ACGTCGTA,-0.192
AAGCGCCA,0.00523
CGTGCCAA,-0.0272

# Single results of other studies
Molecule,target,assay,system,setting,scale,endpoint,result
"PhoQ, residues 284 288 289 292 302 303 AGGCYF","PhoP, residues 12 14 15 18 19 SPWRL (Escherichia coli, UniProt P23836)","Sort-seq, item: YFP reporter",E. coli,"PhoQ-PhoP variant library, added: 10 µM Mg2+","reference: high Mg2+ state, higher = stronger signaling",fold induction,0.845

# Repeated from above (block 3):
Strand,E-score
CGTGCCAA,-0.0272
AAGCGCCA,0.00523
